Measured values gathered from unrelated publications.
Every numbered part comes from another study and shows a few of its results, in no order. Positions count from the first letter of the parent shown.

Block 1
Target: ABI1, truncated, D143A, DHFR fusion (Arabidopsis thaliana)
Method: DHFR PCA, deep sequencing
Matrix: yeast
Notes: methotrexate growth selection, single substitutions
With: (+)-ABA 200 µM
Relative to: wild-type fitted maximum
Direction: higher = stronger binding
Starting sequence: PYL1, truncated, DHFR fusion (Arabidopsis thaliana); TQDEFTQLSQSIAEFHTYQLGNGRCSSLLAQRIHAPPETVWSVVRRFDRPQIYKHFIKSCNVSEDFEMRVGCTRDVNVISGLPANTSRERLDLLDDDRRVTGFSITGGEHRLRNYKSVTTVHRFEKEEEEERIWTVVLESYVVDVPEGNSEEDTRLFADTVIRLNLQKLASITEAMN; partner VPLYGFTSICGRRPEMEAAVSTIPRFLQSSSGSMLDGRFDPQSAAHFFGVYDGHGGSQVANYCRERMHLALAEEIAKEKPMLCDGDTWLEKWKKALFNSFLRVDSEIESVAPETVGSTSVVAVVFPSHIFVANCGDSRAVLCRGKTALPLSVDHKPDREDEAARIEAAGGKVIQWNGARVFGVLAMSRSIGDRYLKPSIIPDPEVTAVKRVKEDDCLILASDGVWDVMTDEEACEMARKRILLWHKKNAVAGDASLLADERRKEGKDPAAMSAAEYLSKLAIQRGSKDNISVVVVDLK
Substitution | relative binding score [%]
E139H | 86
S9Y | 87.8
R98Y | 88.2
S117H | 25.6
N149M | 39.3
E14V | 85.2
E147A | 99.4
R69A | 101
R132H | 101
C60W | 2.77
E109C | 90.9
Y115G | -17.3
D159H | 45.9

Block 2
Target: RING finger protein unkempt homolog, zinc fingers 1-6, GST-SBP tag (UNK, Homo sapiens, UniProt Q9C0B0, residues 30-357)
Method: RNA Bind-n-Seq
Molecule type: RNA
Matrix: in vitro
Tested at: not given
Notes: RNA with constant flanks, human and mouse sites, ends assumed
Relative to: input RNA pool
Direction: higher = stronger binding
Constant ends, left off below: GGGAGUUCUACAGUCCGACGAUC … CAACAGAGGAUUGAGCAUCA
Target sequence (chain): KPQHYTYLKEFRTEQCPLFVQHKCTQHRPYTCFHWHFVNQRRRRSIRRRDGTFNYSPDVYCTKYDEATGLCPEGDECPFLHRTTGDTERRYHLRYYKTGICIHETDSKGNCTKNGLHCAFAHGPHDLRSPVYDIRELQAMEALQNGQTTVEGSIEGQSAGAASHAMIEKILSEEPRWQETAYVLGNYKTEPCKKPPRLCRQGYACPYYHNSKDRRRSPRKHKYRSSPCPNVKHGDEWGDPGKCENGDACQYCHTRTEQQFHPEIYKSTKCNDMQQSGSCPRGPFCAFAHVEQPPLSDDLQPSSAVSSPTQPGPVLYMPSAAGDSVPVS
Sequence | bound/input enrichment [ratio]
GUUGCCUACAUGUCCCUGGCUGUUGAGGCGCUGCUUCAGCCUGCACCCCUCCCUUGUCUCAUAGAUGCUCCUUUUGACCUUUUCAAAUAAAUAUGGAUGGCGAGCUCCUAGGCCUCUGGC | 0.238
ACCUCAUACCGUAUAAAUGUAAUCUCUCUGAUGCCAUUUAAUGCAGUGGACCUCUUUUCAGAAUCUAAUUGUCAGAUGCAGAAUUAACACUUGGAAUCUGGAGAAGCAUUUUGUACAAAU | 0.196
GUCAUCUCCAACAAAGCCGCCGUAGCCGGCUUAGACCGAGCUGAGCGAGCUGGUAUUCCCACCAGGGUAAUUAAUCACAAAUUAUAUAAAAAUCGUGUUGAGUUUGACAAUGCAGUUGAC | 0.42
CCAACUGAGCCAGGACCUCUGGGCAAAAGUGACUACAAAUCUUAAAACCCUACACAAGUAACCACAGCUCUUAGAACCUCACCAGAGUGGUAGAGCAAGUCUACUCCCAUUCCCCAGGCG | 0.266
AACUAUGAUAUCUGCACAGAAAUACUGCAGAGCUCCAGUGCUAUCCAAGCCCAGGCAGGGGCUGAGCAAGGGGACAUAGUCAUCCGGCUGCCCAACCUUCACAAUGACUCCGUUGUCUCU | 0.0972
UAUACUGGCAUUGAUCAUCACUGGAAAGACCCAGUCUUUGCCACUUGUGGACAGCAAGUAGACAUUUGGGAUGAACAAAGAACCAGCCCUGUGUGCUCAAUGAACUGGGGAUUUGACAGC | 0.22
CUGAGGAUACCACUGAAGAGACCUUAAAAGAAUCAUUUGAGGGCUCUGUUCGUGCAAGAAUAGUCACUGAUCGGGAAACUGGUUCUUCCAAAGGGUUUGGUUUUGUAGACUUUAAUAGUG | 0.769
CACUCUUCUGAUAAAGUAUCUAAACUAGAAGGCCAAGUCGAAUCUUAUAAGAAGAAGCUGGAAGACCUUGGAGAUUUGAGGCGGCAGGUUAAGCUCUUGGAAGAAAAGAAUACGAUGUAC | 0.273

Block 3
Target: CCNE1, cyclin fold, Cln2 fusion (human)
Method: yeast growth competition, sequencing
Matrix: yeast
Notes: strong parent motif
Relative to: not given
Direction: higher = stronger binding
Starting sequence: CDC25A docking peptide (human); PPHRRRLLFACSP
Substitution | normalised enrichment score
PPHRRRLLFTCSP [A10T] | 2.02
PLHRRRLLFACSP [P2L] | 0.438
PPHRRRLLFACQP [S12Q] | 0.357
PPHRRALLFACSP [R6A] | 0.52
PRHRRRLLFACSP [P2R] | 1.63
PPHRRRSLFACSP [L7S] | 0.223
PPHRRRLLNACSP [F9N] | 0.796
PPHRKRLLFACSP [R5K] | 1.12
PPHRRELLFACSP [R6E] | 0.562
PPHRMRLLFACSP [R5M] | 1.37
PPHRRRLTFACSP [L8T] | 2.62
PPHRRPLLFACSP [R6P] | 0.449
PPHRRRLLFAQSP [C11Q] | 1.73
PPHRRRLLFGCSP [A10G] | 1.15
PPHRRRLLFACSM [P13M] | 1.44
PPHRRRGLFACSP [L7G] | 0.131
PPHRRRLLFACMP [S12M] | 1.16
PPHRRRLLFACHP [S12H] | 0.734
PPHRRRLLFACFP [S12F] | 1.2
PPHRRRILFACSP [L7I] | 1.12
PPHNRRLLFACSP [R4N] | 1.32
PPHIRRLLFACSP [R4I] | 1.99
PPHRRRLLFFCSP [A10F] | 0.982
PPHRRRLLFAFSP [C11F] | 1.6
PYHRRRLLFACSP [P2Y] | 1.13

Block 4
Target: Hepatocyte nuclear factor 3-alpha (Foxa1, Mus musculus, UniProt P35582, residues 1-468, full length assumed)
UniProt P35582, sequence (whole entry, looked up): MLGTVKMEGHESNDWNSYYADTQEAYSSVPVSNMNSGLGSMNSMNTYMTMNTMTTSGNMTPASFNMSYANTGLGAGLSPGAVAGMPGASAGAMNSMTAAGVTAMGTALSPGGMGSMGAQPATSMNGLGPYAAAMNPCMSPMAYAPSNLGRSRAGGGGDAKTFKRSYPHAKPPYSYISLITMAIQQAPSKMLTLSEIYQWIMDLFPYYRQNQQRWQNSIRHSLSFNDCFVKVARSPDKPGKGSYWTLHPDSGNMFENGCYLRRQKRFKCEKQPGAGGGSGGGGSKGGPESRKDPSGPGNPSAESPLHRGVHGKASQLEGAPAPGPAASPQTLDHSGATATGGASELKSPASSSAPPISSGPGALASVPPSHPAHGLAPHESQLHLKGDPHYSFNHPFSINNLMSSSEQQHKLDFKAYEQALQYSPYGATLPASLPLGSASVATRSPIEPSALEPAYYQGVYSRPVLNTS
Method: EMSA with sequencing
Molecule type: double-stranded DNA, one strand shown
Matrix: in vitro
Tested at: 10 and 20 nM
Notes: whole designed probe, mean of two concentrations, ends assumed
Relative to: negative control set to 0
Direction: higher = stronger binding
Constant ends, left off below: GTGAGCGGTGCCCATTGATGGGGAAC … TTTCACTGGGATCGTGGGGAC
Sequence | normalised bound fraction
AGTCATTCTGATATTCACATTTCTTGTCTTACGGGATTAAAAATCCAGGTAAAGCCTAACATCAGACATAACATGTGTATTTCACCATTTTACATGTTTACTTTTTGAAATATCTTAAAATAAGCCTAATTTGGATAAAAGTAGGTAATTTAGGACTGGGGTCCAGTAAGGAAATATTACCTCTAGTGCTTCC | 0.259 ratio
ATCTTCCCCCTCTTCCTTGCCCCACCAGCTCACCTTCCCGGGTTATTTGCAGATAGGAAAAAAAATTAAGCCGGCATTCGTTAACCCTCTTCTGGCGCAAACTGCTGTTTGCTCTGGATGAATCATGGTCCTTTGGCGACGCCAGGCTCCGGGAGAGCAAAGCACCGTGTCAGGGCCATGATCCGGGGTGGCC | 0.161 ratio
CTTTGAGTTTTCAGAGTGACTCAACACAGTTGAACTATGAATCACTTCAGTATTGTCTGTGCACACCAAAGCCCTGGCATATGGAGCAGGTGTGTACACAAGAAAGCTCTTTCCCAGCCCTGAGCTCTCAGAGCTTTCCCTAGGTGTGTGATGAGGCCACTTTCCCCCATCACTTCCCCAAGTCTAGATGTCC | 0.181 ratio
TTACCACCTCCACCTCTGCTACTTTCTGCTCTAGAAACTACTTTAATGAAAAGAGAAAAAGCTAGTTGACTAGCATGTTGATTTTATGCCCAATGCAATTTCAGACCAACTGACTCATCCTGAAAATATTTAGCAGGGAGAAAAAAAAAAAGAAGAAAATTTTTTTTAGTGAGTAGCCCACATTATGATACTT | -0.00869 ratio
ATCTTCCCCCTCTTCCTTCCACGGCCCACTCACCTTCCCGGGTTATTTGCAGATAGGAAAATAAATAAAGCCGGCATTCGTTAACCCTCTTCTGGCGCAAACTGCTGTTTGCTCTGGATGAATCATGGTCCTTTGGCGACGCCAGGCTCCGGGAGAGCAAAGCACCGTGTCAGGGCCATGATCCGGGGTGGCC | 0.314 ratio

Excerpt of the above (block 3):
Substitution | normalised enrichment score
PRHRRRLLFACSP [P2R] | 1.63
PPHRRRLLFACSM [P13M] | 1.44
PPHRRRLLFTCSP [A10T] | 2.02
PYHRRRLLFACSP [P2Y] | 1.13
PPHRRRLLFACFP [S12F] | 1.2
